Experimental data pooled from the literature.
Lines come from different studies, so protocols differ. Several values in a cell are separate wells, animals, samples, runs or records. ± marks the error that the study gave.
Cell line: A549

CC1=CC(C)=[O+][Pt-2]([NH3+])([NH3+])[O]1.CC1=CC(C)=[O+][Pt-2]([NH3+])([NH3+])[O]1.O=S(=O)([O-])[O-] (stereo not shown) — IC50 (cell growth or viability, MTT): 28 µM
CCNC(=O)OCc1c(COC(=O)NCC)c(-c2ccc(OC)cc2)n2c1Cc1ccccc1-2 — IC50 (cell growth or viability, resazurin; 72 h): 15.5 µM
[Cl-].[Cl-].[Ru+2].c1ccc(-c2ccccn2)nc1.c1ccc(-c2ccccn2)nc1.c1ccc(-c2ccccn2)nc1 — IC50 (resazurin; 72 h, together with: indigo light 450 nm, 29.1 J/cm2): 8.6 µM
Cc1ccc(S(=O)(=O)c2c(-c3ccccc3)c3c(C)c4cc(F)ccc4n3c3ccccc23)cc1 — IC50 (cell growth or viability, MTT; 72 h): 16.4 µM
C[OH+][Cu-2]12[O]C(c3cn(-c4ccccc4)nc3-c3ccc(Cl)cc3)=N[N+]1=C(C)c1c(cc(C)oc1=O)[O]2 (stereo not shown) — IC50 (cell growth or viability, MTT; 48 h): 3.84 µM and 6.9 µM
O=C(Cn1cc(C2CC(c3ccccc3)=NN2)nn1)Nc1nc(-c2ccccc2)cs1 (stereo not shown) — IC50 (cell growth or viability, MTT; 72 h): 0.014 µM
CC(=O)Nc1ccc(/C=C/c2nc3ccc(Br)cc3nc2/C=C/c2ccc(NC(C)=O)cc2)cc1 — IC50 (cell growth or viability, MTT; 72 h): 9.32 µM
Cc1c(-c2cccc(C3=NCCN3)c2)oc(-c2cccc(C3=NCCN3)c2)c1C — IC50 (cell growth or viability, SRB): 0.3 µM
CC(C)=CCn1c2cccc(=O)c-2nc2ccccc21 — IC50 (cell growth or viability, CCK-8; 72 h): 0.88 µM
C[O][Pt-2]([NH3+])([NH3+])([Cl])([Cl])[O]C(=O)CCC(=O)O — IC50 (cell growth or viability, MTT; 96 h): 220 µM
CN(C)CCCO/N=C1/C=C2CCC3C(CC[C@]4(C)/C(=C/c5ccccn5)CCC34)[C@@]2(C)CC1 (stereo partly shown) — IC50 (cell growth or viability, MTT; 72 h): 18.9 µM
COCCOCCSc1nc(N)c2c(F)c(C#N)c(F)c(Cl)c2n1 — IC50 (cell growth or viability, MTT; 96 h): 6.03 µM
CCCCCC(=O)NCCNC(=O)[C@@]1(C)[C@H](O)CC[C@@]2(C)[C@H]1CC[C@]1(C)[C@@H]2C(=O)C=C2[C@@H]3[C@@H](C)[C@H](C)CC[C@]3(C)CC[C@]21C — IC50 (cell growth or viability, MTT; 48 h): 28.8 µM
COc1ccc2c(c1)c(CC(=O)Nc1nnc(CCCCc3ccc(NC(=O)Cc4cccc(OC(F)(F)F)c4)nn3)[se]1)cn2C — IC50 (cell growth, inhibitor, EZMTT; 120 h): 0.01 to 0.04 µM
N#Cc1cccc(-c2ccc(=O)n(Cc3cccc(-c4ncc(OCC5CCN(CCCC(=O)Nc6cccc7c6C(=O)N(C6CCC(=O)NC6=O)C7=O)CC5)cn4)c3)n2)c1 (stereo not shown) — IC50 (cell growth or viability, CCK-8; 72 h): 0.653 µM
Cc1ccc(C(C)C)cc1.F[P-](F)(F)(F)(F)F.O=C(N=P(c1ccccc1)(c1ccccc1)c1ccccc1)c1ccccn1.[Cl-].[Ru+2] — IC50 (cell growth or viability, MTT; 24 h): 9.9 µM
Cc1cc(C#N)cc(C)c1Oc1cc(Nc2ccc(C#N)cn2)nc2cnccc12 — IC50 (48 h): > 127 µM
Fc1ccc(-c2cn(CSc3ccccc3)nn2)c(F)c1 — IC50 (cell growth or viability, MTS; 72 h): 16.2 µM
COc1c(O)cc2oc3cc(O)c(CCC(C)C)c(O)c3c(=O)c2c1CCC(C)C — IC50 (cell growth or viability; 48 h): 14.9 µM
O=C1c2cccc3cccc(c23)C12NC(Cc1ccc(O)cc1)C([N+](=O)[O-])C2c1ccc(Cl)cc1 (stereo not shown) — IC50 (cell growth or viability, MTT; 24 h): 59.2 µM
COC1=C(OC)C(O)C(CC=C(C)CCC=C(C)CCC=C(C)C(=O)O)C(C)C1=O (stereo not shown) — IC50 (cell growth or viability, MTS; 12 h): 10.8 µM
C=C1C2CC3C4N5CC6(C)CCCC47C6C5CC3(C1O)C7C2 (stereo not shown) — IC50 (cell growth or viability, MTT): 75.3 µM
CC(=O)OC[C@]1(C)CCC[C@]2(COC(C)=O)[C@@H]1CC[C@@]13C[C@@H](C[C@H](O)[C@H]12)[C@@H](C)C3=O — IC50 (cell growth or viability, MTT): > 20 µM
NCCNC(=O)c1ccc2[nH]c(C(=O)c3ccc(O)cc3)nc2c1 — IC50 (cell growth or viability, ATP luminescence; 72 h): > 300 µM
Cc1cc(C)c([N+]#[C][Pt-]([Cl])([Cl])=[C](Nc2ccc(CN[C](Nc3c(C)cc(C)cc3C)=[Au][Cl])cc2)Nc2c(C)cc(C)cc2C)c(C)c1 — IC50 (cell growth or viability): > 100 µM
Brc1ccc(Nc2nc(NN=Cc3c[nH]c4ccccc34)nc(-n3ccnc3)n2)cc1 — IC50 (cell growth or viability, SRB; 5 days): 1.25 µM
CC(=O)[O-].O.O.O.O.[Co+2].[O-]c1ccc(Br)cc1C=NCCN1CCOCC1 — IC50 (cell viability, MTT; 72 h): 22.7 µg/mL
CCOC(=O)/C(=N\Nc1ccc(S(=O)(=O)Nc2ncccn2)cc1)C(=O)c1ccccc1 — IC50 (cell growth or viability, MTT; 48 h): 11.2 µM
CCN1CCC2(CC1)C/C(=N\NC(=O)Nc1ccccc1)c1ccccc1O2 — IC50 (cell growth or viability, MTT; 48 h): 1.9 µM
CCCC(CCC)C(=O)NCCNC(=O)[C@@]1(C)[C@H](O)CC[C@@]2(C)[C@H]1CC[C@]1(C)[C@@H]2C(=O)C=C2[C@@H]3[C@@H](C)[C@H](C)CC[C@]3(C)CC[C@]21C — IC50 (cell growth or viability, MTT; 48 h): > 30 µM
CCCC(CCC)C(=O)[O][Pt]1([O]C(=O)C(CCC)CCC)[O]C(=O)C(=O)[O]1.NC1CCCCC1N — IC50 (cell growth or viability): 20.5 µM
O=C1c2cccc[c]2[Au-]([Cl])([Cl])[N+]1=P(c1ccccc1)(c1ccccc1)c1ccccc1 — IC50 (cell growth or viability, MTT; 24 h): 85.3 µM
COc1c(C)c(O)c(C(=O)C=Cc2ccccc2)c(OC)c1C — IC50 (cell growth or viability, SRB; 72 h): 25.4 µM
COc1ccccc1C(=O)c1c(-n2c(C(=O)c3ccccc3OC)cc(Cl)c2Cl)c(Cl)c(Cl)n1C — IC50 (cell growth or viability, resazurin; 24 h): > 64 µg/mL
Cc1cc(C)c([N+]#[C][Pd-]([Cl])([Cl])=[C](Nc2ccc(CN[C](NC(C)(C)C)=[Au][Cl])cc2)Nc2c(C)cc(C)cc2C)c(C)c1 — IC50 (cell growth or viability): > 100 µM
COc1ccc(/C=C/C2=[N+]3C(=C(CO)c4c(C)cc(/C=C/c5ccc(OC)cc5)n4[B-]3(C)C)C(C)=C2)cc1 — IC50 (cell growth or viability, resazurin; dark): > 100 µM
CN(C)c1ccc(/C=C2\SC(N3N=C(c4cccs4)CC3c3ccc(F)cc3)=NC2=O)cc1 (stereo not shown) — IC50 (cell growth or viability, MTT): 24.1 µM
CCCCSc1nc(N)c2c(F)c(C#N)c(F)c(Cl)c2n1 — IC50 (cell growth or viability, MTT; 96 h): > 100 µM
COc1c(Cc2ccccc2O)c(O)c2c(c1Cc1ccccc1O)O[C@H](c1ccccc1)CC2=O — IC50 (cell viability, MTT; 72 h): inactive
COc1cc(OC)c(C(C)=O)c(OC)c1 — IC50 (cell growth or viability, MTT; 48 h): 70.3 µM
CNC(=O)c1c(C)oc2cc(Oc3ncnc4cc(OC)c(OCCCCCCC(=O)NO)cc34)ccc12 — IC50 (cell growth or viability, CCK-8; 48 h): 4.59 µM
CCN(CC)CCN1C(=O)c2ccc3c4cccc5c(N6CCNCC6)ccc(c6ccc(c2c36)C1=O)c54 — IC50 (cell growth or viability, SRB; 72 h): 3.1 µM
CC1(C)[C@@H](O)CC[C@]2(C)[C@H]3C(=O)C=C4[C@@H]5C[C@@](C)(C(=O)O)CC[C@]5(C)CC[C@@]4(C)[C@]3(C)CC[C@@H]12 — IC50 (cell growth or viability, MTT): > 40 µM
O=S(=O)([O-])[O-].[Cu+2].c1ccc(-c2nnc(-c3ccc4c(c3)OCO4)[nH]2)nc1 — IC50 (cell growth or viability, MTT; 24 h): 7.42 µM
CC(C)c1cccc(C(C)C)c1[N+]#[C][Pt-2]([Cl])([Cl])[C]#[N+]c1c(C(C)C)cccc1C(C)C — IC50 (cell growth or viability): > 100 µM
S=c1n(-c2ccccc2)c2c3ccccc3nc3[n+]2[n]1[Ir-3]12([S]3)([c]3ccccc3-c3cccc[n+]31)[c]1ccccc1-c1cccc[n+]12 — IC50 (cell viability, MTT; dark): > 50 µM
c1ccc(-c2nn(-c3ccccn3)[n+](-c3ccccc3)n2)cc1 — IC50 (cell growth, resazurin): 17 ± 2 µM
CCCCCCCC(=O)NCCNC(=O)[C@@]1(C)[C@H](O)CC[C@@]2(C)[C@H]1CC[C@]1(C)[C@@H]2C(=O)C=C2[C@@H]3[C@@H](C)[C@H](C)CC[C@]3(C)CC[C@]21C — IC50 (cell growth or viability, MTT; 48 h): 14.8 µM
N=c1c2sc3sc4c(=N)n(-c5ccccc5)c(=S)[nH]c4c3c2[nH]c(=S)n1-c1ccccc1 — IC50 (cell growth or viability, MTT): 9.27 µM
Cc1ccc(C2=NN(C3=NC(=O)C(=Cc4ccc(O)cc4)S3)C(c3ccc(F)cc3)C2)cc1 (stereo not shown) — IC50 (cell growth or viability, MTT): 4.41 µM
N#Cc1cccc(-c2ccc(=O)n(Cc3cccc(-c4ncc(OCC5CCN(CC(=O)N6CCN(c7ccc8c(c7)C(=O)N(C7CCC(=O)NC7=O)C8=O)CC6)CC5)cn4)c3)n2)c1 (stereo not shown) — IC50 (cell growth or viability, CCK-8; 72 h): 0.377 µM
COc1cc(N(C)CCN(C)C)c(NC(=O)/C=C/c2ccc3ccccc3c2)cc1Nc1nccc(-c2cn(C)c3ccccc23)n1 — IC50 (cell growth or viability, MTT; 72 h): 0.115 µM
Cc1cccc(-c2cccc(C)n2)n1.[Cl-].[Cl-].[Ru+2].c1ccc(-c2ccccn2)nc1.c1ccc(-c2ccccn2)nc1 — IC50 (resazurin; 72 h, together with: indigo light 450 nm, 29.1 J/cm2): 22.6 µM
O=C(CN1C(=O)S/C(=C\c2ccccc2)C1=O)Nc1ccc(C(=O)Nc2ccc(F)cc2)cc1 — IC50 (cell growth or viability, MTT): 19.4 µM
CC(C)(O)[C@@H]1CC[C@](C)([C@H]2CC[C@]3(C)[C@@H]2CC[C@@H]2[C@@]4(C)CCC(=O)C(C)(C)[C@@H]4CC[C@]23C)O1 — IC50 (cell growth or viability, SRB): > 100 µM

Some of these lines once more:
CCCC(CCC)C(=O)NCCNC(=O)[C@@]1(C)[C@H](O)CC[C@@]2(C)[C@H]1CC[C@]1(C)[C@@H]2C(=O)C=C2[C@@H]3[C@@H](C)[C@H](C)CC[C@]3(C)CC[C@]21C — IC50 (cell growth or viability, MTT; 48 h): > 30 µM
CCCC(CCC)C(=O)[O][Pt]1([O]C(=O)C(CCC)CCC)[O]C(=O)C(=O)[O]1.NC1CCCCC1N — IC50 (cell growth or viability): 20.5 µM
O=C1c2cccc[c]2[Au-]([Cl])([Cl])[N+]1=P(c1ccccc1)(c1ccccc1)c1ccccc1 — IC50 (cell growth or viability, MTT; 24 h): 85.3 µM
COc1c(C)c(O)c(C(=O)C=Cc2ccccc2)c(OC)c1C — IC50 (cell growth or viability, SRB; 72 h): 25.4 µM
